Published values pooled from the literature.
Lines come from different studies, so protocols differ. Numbers after ± are the reported error.

Under “volume of distribution”, `N=C(N)NCCNC(=O)C1(Nc2ccccc2)CCN(Cc2ccccc2)CC1` is recorded as 0.6 ± 0.2 L (female Sprague-Dawley rats, plasma; intravenous, 2.5 mg/kg).
`O=C1c2ccncc2C(=O)c2c1[nH]c1ccccc21`: “volume of distribution” 10.2 ± 4.3 L (Sprague-Dawley rat male, plasma; intravenous, 1 mg/kg).
For `CC[C@@](N)(c1cnc(C(F)(F)F)c(Cl)c1)c1c2ncn(C3CC3)c(=O)c2nn1C`, “volume of distribution at steady state” read 0.92 ± 0.0516 L/kg (Sprague-Dawley rat, male, plasma; intravenous, 1 mg/kg).
`COc1cc2c3c(n(CCCN4CCOCC4)c(=O)c2cc1OC)-c1cc2c(cc1C3=O)OCO2`: “volume of distribution” 156 L/m² (Fischer 344 rats, male; intravenous bolus, 12 mg/m^2).
For `O=C1C[C@@H](c2ccc(O)cc2)Oc2cc(O)cc(O)c21`, “volume of distribution” read 1.01 ± 0.067 L (Sprague-Dawley rat, plasma; intravenous bolus, 1 mg/kg).
For `CCn1cc(C)c2c([C@H](O)c3ccc(C(F)(F)F)nc3)n(C)nc2c1=O`, “volume of distribution at steady state” read 2.9 ± 0.222 L/kg (Sprague-Dawley rat, male, plasma; intravenous, 1 mg/kg).
`Cc1cc(C#N)cc(C)c1Oc1nc(Nc2ccc(C#N)cc2)nc(N)c1Br`: “volume of distribution” 8.85 ± 1.17 L/kg (Sprague-Dawley rat, plasma; intravenous, 2 mg/kg).
Under “volume of distribution”, `CN1CC(Oc2cnc(C#N)cc2-c2ccn3nc(NC(=O)C4CC4)cc3c2)C1` is recorded as 4 L/kg (rat, Sprague-Dawley, male, plasma; intravenous, 1 mg/kg).
